Measurements of several laboratories.
Numbered parts are unrelated; each lists some results of a single study.

Sample 1
Target: Histone acetyltransferase KAT6A, winged helix 2, GST fusion (KAT6A, Homo sapiens, UniProt Q92794, residues 85-181)
Technique: protein binding microarray
Form: double-stranded DNA, one strand shown
Matrix: in vitro
Concentration: not given
Notes: 8-mer, flanks averaged, mean of 2 arrays, mostly near background
Baseline: not given
Reading: higher = stronger binding
Target sequence (chain): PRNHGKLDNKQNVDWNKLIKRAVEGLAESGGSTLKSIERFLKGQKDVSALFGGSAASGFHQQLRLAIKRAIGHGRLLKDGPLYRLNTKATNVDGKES
| Oligonucleotide | E-score |
| --- | --- |
| ACCGATGG | -0.157 |
| ACGCACAC | 0.0987 |
| ATCGAGTA | -0.175 |
| AGAACGAT | 0.0838 |
| TCGAATCA | -0.0698 |
| CTTCGTCC | 0.105 |
| AGTAAGCG | 0.12 |
| CCCGGAGA | 0.189 |
| TCCCGAGA | 0.116 |
| GCTGGTGA | 0.204 |
| GATTTTTA | 0.0841 |
| AGATACAA | 0.0376 |
| AGCAATAT | 0.0341 |
| CTCGCGAC | 0.175 |
| CTTGATAC | -0.0353 |
| AAACCTTG | 0.00171 |
| CGTCAAAA | -0.048 |
| ACTTTTGA | -0.0463 |

Sample 2
Target: Sal-like protein 4, full length isoform B (SALL4, Homo sapiens, UniProt Q9UJQ4-2, residues 1-616)
Technique: universal PBM
Form: double-stranded DNA, one strand shown
Matrix: in vitro
Concentration: not given
Notes: 8-mer, flanks averaged, mean of replicates
Reading: higher = stronger binding
Residues (chain): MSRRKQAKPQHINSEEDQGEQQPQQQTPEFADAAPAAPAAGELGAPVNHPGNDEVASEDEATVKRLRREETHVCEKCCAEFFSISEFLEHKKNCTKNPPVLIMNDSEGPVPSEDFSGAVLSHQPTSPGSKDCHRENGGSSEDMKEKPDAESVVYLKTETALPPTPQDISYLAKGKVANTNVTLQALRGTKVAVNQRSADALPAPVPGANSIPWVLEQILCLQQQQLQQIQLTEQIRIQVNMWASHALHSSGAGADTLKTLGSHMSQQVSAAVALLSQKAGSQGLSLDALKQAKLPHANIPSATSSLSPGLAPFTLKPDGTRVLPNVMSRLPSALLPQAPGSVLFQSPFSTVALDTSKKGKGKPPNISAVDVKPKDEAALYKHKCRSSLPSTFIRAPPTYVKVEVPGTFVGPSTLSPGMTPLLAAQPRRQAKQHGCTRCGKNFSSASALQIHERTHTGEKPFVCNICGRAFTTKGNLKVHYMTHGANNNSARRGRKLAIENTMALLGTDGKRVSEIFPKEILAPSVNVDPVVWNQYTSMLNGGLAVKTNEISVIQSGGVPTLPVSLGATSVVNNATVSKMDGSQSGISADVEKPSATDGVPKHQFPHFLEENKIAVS
| Oligonucleotide | E-score |
| --- | --- |
| AGCCAGAT | 0.0445 |
| ACACCCGT | -0.203 |
| ATCCCCTA | 0.12 |
| GGCAAAAC | 0.0232 |
| GCACGCAA | -0.225 |
| AGGCTGCC | -0.336 |
| ACATCATG | 0.0122 |
| GGATACTA | 0.1 |
| GGGTCCAC | -0.294 |
| CAAACTTG | 0.0533 |
| AACATAGT | 0.191 |

Sample 3
Target: Centromere-binding protein 1, full length, His-tagged (CBF1, Saccharomyces cerevisiae, UniProt P17106, residues 1-351)
Chain of UniProt P17106 (whole entry, looked up): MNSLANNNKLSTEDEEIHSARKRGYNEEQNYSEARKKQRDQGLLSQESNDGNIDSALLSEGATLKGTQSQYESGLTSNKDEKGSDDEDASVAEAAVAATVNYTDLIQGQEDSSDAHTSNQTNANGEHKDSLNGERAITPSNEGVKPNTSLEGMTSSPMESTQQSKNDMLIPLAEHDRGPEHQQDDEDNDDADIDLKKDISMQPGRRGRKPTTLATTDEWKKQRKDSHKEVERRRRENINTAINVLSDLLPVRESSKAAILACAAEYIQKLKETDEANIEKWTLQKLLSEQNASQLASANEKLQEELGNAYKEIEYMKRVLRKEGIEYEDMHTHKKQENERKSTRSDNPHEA
Technique: competition protein-binding microarray
Form: double-stranded DNA, one strand shown
Matrix: in vitro
Concentration: 2 µM
Notes: whole 60-bp probe, lowest competitor level
Together with: Pho4 competitor, 0.05 µM
Reading: higher = stronger binding
Constant ends, left off below: … GTCTTGATTCGCTTGACGCTGCTG
| Oligonucleotide | fluorescence intensity [a.u.] |
| --- | --- |
| TGCGCAACAACTTGCTCTGTGGGTGTATGTCTAGAA | 58 |
| CTTTCCCGATCTTCGCACGTGTTTTTAGCACATTTG | 1210 |
| GAGGAGACACACCGTCACGTGTTTTGCCATTTTGTA | 3520 |
| GCGTTTGCATAATCGCACGTCTTTCCATCGAATTAA | 97.1 |
| GAAAGCACTGGCAAGAACGTGTTGAAGTGCACTTCG | 76.7 |
| GTCTTGTCTCATTGCTACGTGGGTGTCCCCACTTCA | 90.5 |
| GTCTTGTCTCATTGACGCGTGGGTGTCCCCACTTCA | 85.1 |
| TATTCCGGAAGATATCAGGTGAGAGAGAAAAGACAG | 229 |
| GTTCCATTCACCGTTGTAATGTGCAGCCCCGTCCTA | 64.8 |
| AAATCTGATTCTCACCACGTGCAAAAAAGATTGTAC | 2250 |
| GAAATATGTTGGGAGCACATGTTCGACCCATTACAT | 186 |

Sample 4
Target: Interferon regulatory factor 5, full length, phosphomimetic (IRF5, Homo sapiens, UniProt Q13568-2, residues 1-514, S451D/S453D/S456D/S462D)
Technique: protein-binding microarray
Form: double-stranded DNA, one strand shown
Matrix: in vitro
Concentration: 940 nM top
Notes: 60-bp whole probe
Together with: salmon DNA 0.4 mg/ml
Baseline: random background probes
Reading: higher = stronger binding
Constant ends, left off below: GCCTAGCAC … GTCTTGATTCGCTTGACGCTGCTG
| Oligonucleotide | fitted relative affinity |
| --- | --- |
| ACCGTTGTAGTTTTCATTATGTGCTAG | 1.2 z-score |
| GACGGACTGCTGCTGCTGACGTGCTAG | -0.756 z-score |
| TTAGAACTGGGGATTGGATTAGTGCTA | 0.146 z-score |
| TTAGGTATCGGACTGGGCTAGTGCTAG | 3.44 z-score |
| TTAGATATCAGTCTCGATAAGTGCTAG | 2.67 z-score |
| ACTGAAATCACCCTTGGAAGTGTGCTA | 0.734 z-score |
| TTTCATTTATTTACTCTCTACGTGCTA | 6.12 z-score |
| TTAGAACTGGGGTTTCGATTAGTGCTA | 5.37 z-score |
| AACTTTTTTTTTTCCCTGAAGTGCTAG | 1.2 z-score |
| TTAGGAATGGGACTGGGTTAGTGCTAG | -0.309 z-score |
| TTAAGACTGGGGTTTCGGTTAGTGCTA | 6.18 z-score |
| GACGATTTCAGTCTCGAGACGTGCTAG | 1.87 z-score |
| TTTTGTTTTTCATTATTGTCGTGCTAG | 2.43 z-score |
| TTAGGTTTCGCACTGGGTTAGTGCTAG | 5.74 z-score |
| GACGGCTCCCTTTTCCTGACGTGCTAG | 0.118 z-score |

Sample 5
Target: RING finger protein unkempt homolog, zinc fingers 1-6, SBP tag (UNK, Homo sapiens, UniProt Q9C0B0, residues 30-357)
Chain of UniProt Q9C0B0 (30-357, looked up): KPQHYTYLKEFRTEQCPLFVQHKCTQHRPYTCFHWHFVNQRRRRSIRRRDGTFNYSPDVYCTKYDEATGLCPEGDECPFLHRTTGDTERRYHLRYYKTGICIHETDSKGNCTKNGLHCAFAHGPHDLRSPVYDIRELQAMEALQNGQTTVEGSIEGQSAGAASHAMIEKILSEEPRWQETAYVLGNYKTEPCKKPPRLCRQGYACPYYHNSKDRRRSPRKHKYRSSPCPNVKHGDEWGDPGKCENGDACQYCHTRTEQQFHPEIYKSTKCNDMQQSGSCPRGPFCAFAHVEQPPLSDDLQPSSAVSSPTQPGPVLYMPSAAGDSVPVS
Technique: RNA Bind-n-Seq
Form: RNA
Matrix: in vitro
Concentration: 100 nM
Notes: RNA with constant flanks, vertebrate orthologous sites, ends assumed
Baseline: input RNA pool
Reading: higher = stronger binding
Constant ends, left off below: GGGAGUUCUACAGUCCGACGAUC … CAACAGAGGAUUGAGCAUCA
| Oligonucleotide | bound/input enrichment |
| --- | --- |
| CAUGAUCUUGUUACUGUGAUAUUUUAAAUAUCCACAGUACUCACUUUUUCCAAAUGAUUCUAGUAAUUGCCUAGAAAUAUCUUUCUCUUACCUGUUAUUUAUCAAUUUUUCCCAGUAUUU | 1.22 ratio |
| GUCAUCUGACUGGAUGAAGACGGUACCAAGUUACAACCAAACAAAUAGCUCUCUGGACUUUAGAAAUUAUAUGAUGAGAGAUGAGAAUUUGGAACCACUGCCCAAAAACUGGGAAAUGGC | 0.717 ratio |
| CCAAAGAAUCGACCCCAAAUUUGCCCCAGAGAUUUUGAAAAUGAUAUUGAAAGGAUUAUUUGCGCAUGGAUGCUCAGCGGUCCUCUGAGAUUUCUCAAGCAGUGUGAUUAAGAUCCGUGA | 0.278 ratio |
| GUAUCUUGGUUUGGGGUAGAGGGGAGGGAGGGGCAGGACUGUGGAAUCUCUAGUGGGUAUGGGUAUAUAGGGUGCACAGUUCUAAGUGGGCCUUUAUGUUAAAAACCUCUGGGGGUGUCU | 0.908 ratio |
| AUCCCAGUUUGUAUGCACAUUAUUCACAUUCCUAUCUGUUGUGUUUGCAGAAAUGACAUUUUACCCUUUUCUAAGGGAUAUCUUUUGAUUUUCAUAUUAUUUGGUUGCAUGGAGUUGCCC | 0.459 ratio |
| UCUCUCACUUAGCUGUGUCCAAAAUUGCUAUGAGGGUUGGAAACAUUGAUUAGUUUCAUGUAGAACUACACUGGCAGGUGCUCAAUUACCAUCAUAGCAAGGUCAAAUACCAUCACAGUA | 1.44 ratio |

Sample 6
Target: Hepatocyte nuclear factor 3-alpha (Foxa1, Mus musculus, UniProt P35582, residues 1-468, full length assumed)
Chain of UniProt P35582 (whole entry, looked up): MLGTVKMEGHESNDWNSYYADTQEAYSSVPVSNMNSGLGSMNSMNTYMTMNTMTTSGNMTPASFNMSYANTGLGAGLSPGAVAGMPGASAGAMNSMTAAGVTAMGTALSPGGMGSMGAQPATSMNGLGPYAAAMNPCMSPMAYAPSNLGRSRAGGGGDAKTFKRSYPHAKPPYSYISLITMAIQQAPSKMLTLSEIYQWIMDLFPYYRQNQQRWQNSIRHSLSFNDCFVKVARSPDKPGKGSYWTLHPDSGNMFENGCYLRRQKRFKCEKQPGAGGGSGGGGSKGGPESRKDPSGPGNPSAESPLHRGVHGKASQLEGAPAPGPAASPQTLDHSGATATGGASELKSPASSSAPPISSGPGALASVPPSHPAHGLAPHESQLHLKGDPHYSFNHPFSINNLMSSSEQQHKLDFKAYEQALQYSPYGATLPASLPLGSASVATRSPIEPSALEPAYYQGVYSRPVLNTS
Technique: EMSA with sequencing
Form: double-stranded DNA, one strand shown
Matrix: in vitro
Concentration: 10 and 20 nM
Notes: whole designed probe, mean of two concentrations, ends assumed
Baseline: negative control set to 0
Reading: higher = stronger binding
Constant ends, left off below: GTGAGCGGTGCCCATTGATGGGGAAC … TTTCACTGGGATCGTGGGGAC
| Oligonucleotide | normalised bound fraction [ratio] |
| --- | --- |
| GTTTTTGCACTGACGTGCACAGGCAAGCCCATATCTCTGCCTCTAAGCACATACTCTCTTTCCAAAGGTTGTGTAATGAGTGAGTCAGAGCAGAGTACTCTTAAGAAAGGAAAGAGGGCAAGGCAGGGCAGGAATTCAGCTCAATGAAGCCGCGGAGCCTCCATTTAAAAATGATACTAATGAGCCCACAGAA | -0.0608 |
| GACAGTACATGTTTTAGGATTTTTGGACCACACAGTCTCTGTCACAATGACTCAGCTTTGCCATTGTAGCGTGCAAACAGCCACAAACCATATGCAAACAAATGTATGCCAATAAAGAGGGTGTGGTACTTTATTTACAAAAGCAGGAGGACAGTGGAGTTGGCTTGCAGACAGTCATTTGCAGAGCCCTGAT | 0.443 |
| ACAGCAACTAGGTAGAGAGAGTTCACAGTTTGTGAACTCTGTGAATCTGGTATCAGGCTGGCTGGGAGAAGGGCCTAAAGGGTGTGTGAAATGTAATCTAGGGCTTCCTGACGCTGCTCTGTGACTTGTGCTAAACTTTCTGGGGGTGGCAGACCCAGAGTAGTCATACCCAATCCATGAATCCAACATTCAC | -0.0544 |
| ATCTTCCCCCTCTTCCTTGCCCCACCAGCTCACCTACGGGGGTTATTTGCAGATAGGAAAATAAATAAAGCCGGCATTCGTTAACGCAGTTCTGGCGCAAACTGCTGTTTGCTCTGGATCTAACATGGTCCTTTGGCGAGGCGTGGCTCCGGGAGAGCAAAGCACCGTGTCAGGGCCATGATCCGGGGTGGCC | 0.35 |
| CAGTTTTGCAAAGACGGAGTCCGTCAGAGAAAGCATTTGTTTGATTTCATGCATTTGTGTTTCCTTTGTCCATTTCCTTTATATTTATTTATTTGTTTATTTATTTTTTTGAGACGGAGTTTCGATCCTCTCGCCCAGGCTGGAGTGCAATATCGCGATCTCGGCTCACTGCAACCTCCCCCTCCCGGGTTCA | 0.523 |

Sample 7
Target: Transcription factor SOX-2, HMG box (Sox2, Mus musculus, UniProt P48432, residues 41-119)
Chain of UniProt P48432 (41-119, looked up): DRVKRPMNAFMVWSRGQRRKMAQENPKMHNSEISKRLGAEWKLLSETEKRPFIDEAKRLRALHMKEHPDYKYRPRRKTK
Technique: Spec-seq
Form: double-stranded DNA, one strand shown
Matrix: in vitro
Concentration: not given
Notes: whole probe, mean of replicates
Baseline: not given
Reading: lower = stronger binding
Constant ends, left off below: GAGTCGTCTCGTCAGCAC … CCGTAGAGCACTCAGGTC
| Oligonucleotide | relative binding energy |
| --- | --- |
| CATGTCG | 0.659 ln ratio |
| CATGTCT | 0.495 ln ratio |
| GCCGGTT | 1.43 ln ratio |
| GGTAGTT | 0.984 ln ratio |
| CATACAT | -1.14 ln ratio |
| CATATCG | 0.293 ln ratio |
| CTCCGTT | 0.897 ln ratio |
| CATCTAC | 0.745 ln ratio |
| CATTCAC | -1.4 ln ratio |
| CATTAAA | -0.539 ln ratio |
| CATCCAA | 0.402 ln ratio |
| TCACGTT | 0.987 ln ratio |
| GCTTGTT | -0.248 ln ratio |

Repeated from above (sample 6):
| Oligonucleotide | normalised bound fraction [ratio] |
| --- | --- |
| GACAGTACATGTTTTAGGATTTTTGGACCACACAGTCTCTGTCACAATGACTCAGCTTTGCCATTGTAGCGTGCAAACAGCCACAAACCATATGCAAACAAATGTATGCCAATAAAGAGGGTGTGGTACTTTATTTACAAAAGCAGGAGGACAGTGGAGTTGGCTTGCAGACAGTCATTTGCAGAGCCCTGAT | 0.443 |
| GTTTTTGCACTGACGTGCACAGGCAAGCCCATATCTCTGCCTCTAAGCACATACTCTCTTTCCAAAGGTTGTGTAATGAGTGAGTCAGAGCAGAGTACTCTTAAGAAAGGAAAGAGGGCAAGGCAGGGCAGGAATTCAGCTCAATGAAGCCGCGGAGCCTCCATTTAAAAATGATACTAATGAGCCCACAGAA | -0.0608 |
| ACAGCAACTAGGTAGAGAGAGTTCACAGTTTGTGAACTCTGTGAATCTGGTATCAGGCTGGCTGGGAGAAGGGCCTAAAGGGTGTGTGAAATGTAATCTAGGGCTTCCTGACGCTGCTCTGTGACTTGTGCTAAACTTTCTGGGGGTGGCAGACCCAGAGTAGTCATACCCAATCCATGAATCCAACATTCAC | -0.0544 |
| ATCTTCCCCCTCTTCCTTGCCCCACCAGCTCACCTACGGGGGTTATTTGCAGATAGGAAAATAAATAAAGCCGGCATTCGTTAACGCAGTTCTGGCGCAAACTGCTGTTTGCTCTGGATCTAACATGGTCCTTTGGCGAGGCGTGGCTCCGGGAGAGCAAAGCACCGTGTCAGGGCCATGATCCGGGGTGGCC | 0.35 |
| CAGTTTTGCAAAGACGGAGTCCGTCAGAGAAAGCATTTGTTTGATTTCATGCATTTGTGTTTCCTTTGTCCATTTCCTTTATATTTATTTATTTGTTTATTTATTTTTTTGAGACGGAGTTTCGATCCTCTCGCCCAGGCTGGAGTGCAATATCGCGATCTCGGCTCACTGCAACCTCCCCCTCCCGGGTTCA | 0.523 |
